Assay results pooled from the literature.
Lines come from different studies, so protocols differ.
PDGFRB: Platelet-derived growth factor receptor beta (PDGFRB, Homo sapiens, UniProt P09619)

Compound	target	test	setting	how to read	quantity	result
C=CC[C@H]1OC(=O)CCNC(=O)[C@H](C)N(C)C(=O)[C@H]([C@@H](C)CC)N(C)C(=O)[C@H]([C@@H](C)CC)NC(=O)[C@@H]2[C@@H](C)CCN2C1=O	Platelet-derived growth factor receptor beta, extracellular domain (PDGFRB, Homo sapiens, UniProt P09619)	SPR van't Hoff	concentration not given, 25 °C	–	heat capacity change	1.04 kcal/(K·mol)
NC(=O)[C@@H](O)C[C@H]1CCc2sc3ncnc(O[C@H]4CC[C@H](N5CCOCC5)CC4)c3c21	PDGFRB	enzyme activity, inhibitor	10 µM	–	inhibition	28%
COc1ccc(C(=O)/C=C/c2ccccc2-c2c[nH]c3ccc(C#N)cc23)c(O)c1	PDGFRB	enzyme activity, inhibitor	20 µM	–	inhibition	-9%
O=C(O)CCC(=O)c1cccc(NS(=O)(=O)c2c[nH]c3ncccc23)c1	PDGFRB	kinase activity, radiometric	10 µM	–	remaining activity	80%
C[C@H]1CN(C(=O)c2cn(-c3ccnc(N)n3)c3cc(C#CC4(O)CCCCC4)ccc23)CCN1	PDGFRB	enzyme activity, inhibitor, FRET	1 µM	–	inhibition	0%
COC(=O)[C@@]1(C)C=C(C(=O)Nc2cccc(C(=O)Nc3ccc(Nc4nccc(-c5cccnc5)n4)c(C)c3)c2)C(=O)CC1	PDGFRB	binding, competition with immobilised ligand	1 µM	–	remaining binding	71%
COc1c(OCCCN2CCOCC2)ccc2c1N=C(NC(=O)c1cnc(N)nc1)N1CCN=C21	PDGFRB	kinase activity, inhibitor	1 µM	relative to: untreated control	remaining activity	99%
Cc1cccc(O[C@H]2CCC[C@@H](C(C)CNCc3ccncc3)C2)c1 (relative stereo)	PDGFRB	enzyme activity, inhibitor	10 µM	–	inhibition	-2%
Cc1cc(-c2n[nH]cc2C(=O)Nc2ccc(C)c(F)c2)ccn1	PDGFRB	cell-free assay, competition with immobilised ligand	10 µM	–	remaining binding	19%
COc1cc(OC)c(F)c(/C=C/c2cnc3ccn(S(=O)(=O)c4cn(CCF)cn4)c3n2)c1F	PDGFRB	–	10 nM	–	inhibition	0%
O=C=[N][Ru-4]123([n]4c5ccc(O)cc5c5c6c(c7cc(F)c[n+]1c7c54)C(=O)NC6=O)[S+]1CC[S+]2CC[S+]3CC1 (stereo not shown)	PDGFRB	enzyme activity	100 nM, human enzyme, together with: 10 µM ATP	relative to: untreated	remaining activity	107%
CCN1CCN(Cc2ccc(NC(=O)c3ccc(C)c(NC(=O)c4cncc(-c5cccs5)c4)c3)cc2C(F)(F)F)CC1	PDGFRB	binding, competition with immobilised ligand	1 µM	–	remaining binding	0.05%
CNS(=O)(=O)Nc1nccc(Cc2c(C)c3ccc(Oc4ncccc4F)cc3oc2=O)c1F	PDGFRB	cell-free assay, competition with immobilised ligand	10 µM	–	remaining binding	100%
C=CC(=O)N1CCc2ccc(-n3c(=O)ccc4cnc5ccc(-c6cnn(C)c6)cc5c43)cc21	PDGFRB	KINOMEscan	1 µM	relative to: DMSO control	remaining binding	66%
CNc1ccc(-c2n[nH]c3c2CCN(C(=O)c2ccccc2)C3)cc1	PDGFRB	cell-free assay, competition with immobilised ligand	10 µM	–	remaining binding	3.9%
CN1CCN(Cc2ccc(-c3ccc(CO[C@H]4CCC[C@@H]4NC(=O)c4cc(-c5cnn(C)c5)cnc4N)cc3)cc2)CC1	PDGFRB	enzyme activity, inhibitor	0.1 µM	–	inhibition	4%
CN1CCN(c2ccc(Nc3ncc(Cl)c(Nc4ccccc4P(C)(C)=O)n3)cc2Br)CC1	PDGFRB	enzyme activity, inhibitor	0.1 µM	–	inhibition	97%
C=CC(=O)N1CCCC(n2c(=O)c3ncccc3n(Cc3ccc(Oc4ccccc4)cc3)c2=O)C1 (stereo not shown)	PDGFRB	cell-free assay, competition with immobilised ligand	1 µM	–	remaining binding	97%
C=CC(=O)Nc1cccc(-c2cnc3[nH]cc(C(=O)NC(C)(C)C)c3n2)c1	PDGFRB	enzyme activity, inhibitor	0.1 µM	–	inhibition	19%
CN1CCN(Cc2ccc(NC(=O)c3cccc(C#Cc4cnc(N)c5ncccc45)c3)cc2C(F)(F)F)CC1	PDGFRB	cell-free assay, competition with immobilised ligand	50 nM	–	remaining binding	0.2%
C=CC(=O)N1Cc2nc(-c3cc(-c4cc(Cl)cnc4Cl)c(F)cc3F)n(-c3ccncn3)c2C1	PDGFRB	cell-free assay, inhibitor	1 µM	–	inhibition	1.7%
Nc1ncc(-c2cc(-c3cnn(CC(F)(F)F)c3)ncc2F)nc1C(=O)NC1CNCC(F)C1 (stereo not shown)	PDGFRB	enzyme activity	1 µM	relative to: DMSO control	remaining activity	99.3%
CC(=O)N1c2ccc(-c3ccc(CNC(=O)c4cn5cc(-c6cnc(N)nc6)nc(N6CCOCC6)c5n4)cc3)cc2CC[C@@H]1C	PDGFRB	binding, competition with immobilised ligand	10 µM	–	remaining binding	53%
O=C(Cc1ccc(OCc2ccccc2)cc1)NC1(C(=O)O)CCN(C(=O)c2ccc(-c3cccc(Cl)c3)cc2)CC1	PDGFRB	enzyme activity, inhibitor	10 µM	–	activity vs control	114%
CNC(=O)C[C@H](Cc1ccc(C#N)cc1)NC(=O)c1cc(-c2ccc(CN[C@H](C)c3ccc(C)cc3)o2)ccc1Cl	PDGFRB	enzyme activity, inhibitor	1 µM	–	activity vs control	110%
